Experimental data gathered from unrelated publications.
Each numbered part is a random draw from the data of one study; scales do not carry over between parts.

Sample 1 — method: RNA Bind-n-Seq; molecule type: RNA; matrix: in vitro; tested at: 200 nM; setting: whole 134-nt RNA, ends assumed; together with: 150 mM LiCl; reference: input library; reading: higher = stronger binding; each molecule: 7-deaza-guanosine replaces G
Target: Fragile X messenger ribonucleoprotein 1, C-terminal low-complexity region (Fmr1, Mus musculus, UniProt P35922)
Strand	log2 enrichment
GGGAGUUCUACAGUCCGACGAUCCCUCAAGUCCUGUGCUACACAUCGUAUGUACCGAAUCGGGUUGGUUGGUUGGGAAAGUAUUAUGUUACGCCGUUCGGAUCUGCACUUCCAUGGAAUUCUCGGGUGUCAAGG	-0.631
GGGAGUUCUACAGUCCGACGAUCUGGUAGGUGGAUUUUGUUUAUUUUUUUAGCUCAUUUCCAGGGGUGGGAAUUUUUUUUUAAUAUGUGUCAUGAAUAAAGUUGUUUUUGAAAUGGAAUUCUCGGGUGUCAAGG	0.812
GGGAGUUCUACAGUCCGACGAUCAAGUCCUGUGCUACACAUCGUAUGUACCGAAUCGGAAAAGGGGAAAAGGGAAAAGGGAAAGUAUUAUGUUACGCCGUUCGGAUCUGCACUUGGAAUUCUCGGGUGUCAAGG	0.217
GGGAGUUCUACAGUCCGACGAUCGCAGGAAGUAAAAACAAAUGGAAAUGCUUCGGAUAGUGGCAGGGGUGGGGGUUGCUAAGGAAAGGGUGGGAUGGGAGUGGGUAAAGAGGUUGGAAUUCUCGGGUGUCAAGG	1.68
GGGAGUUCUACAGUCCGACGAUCGUCCUGUGCUACACAUCGUAUGUACCGAAUCGGUUUUUUUGGAAAAAGGUUUUUUUGGAAAGUAUUAUGUUACGCCGUUCGGAUCUGCACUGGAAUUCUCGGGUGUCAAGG	-3.12
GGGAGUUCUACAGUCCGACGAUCUCCUGUGCUACACAUCGUAUGUACCGAAUCGGGUUUUUGGGUUUUUGGGGUUUUUGGGGAAAGUAUUAUGUUACGCCGUUCGGAUCUGCAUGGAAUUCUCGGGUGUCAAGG	-1.02
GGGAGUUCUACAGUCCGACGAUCCCUGUGCUACACAUCGUAUGUACCGAAUCGGGAAAAAAAGGGUUUUUUUGGGUUUUUGGGAAAGUAUUAUGUUACGCCGUUCGGAUCUGCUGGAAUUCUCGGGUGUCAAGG	-2.89
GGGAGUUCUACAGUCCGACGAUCUGGAGAAGCGCUACCUGGCUGCUCAGCGUGAGGCAACAUCCAUCCAUGACCUCAAUGACAAGCUGGAGAAUGAGCUGGCCAACAAGGAGUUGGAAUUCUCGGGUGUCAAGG	-0.442
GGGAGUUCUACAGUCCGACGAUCCCUGUGCUACACAUCGUAUGUACCGAAUCGGGCCCCCCGGCCCCCCGGGGCCCCCCGGGGAAAGUAUUAUGUUACGCCGUUCGGAUCUGCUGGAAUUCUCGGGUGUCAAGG	-1.06
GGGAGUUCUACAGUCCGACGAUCAGUCCUGUGCUACACAUCGUAUGUACCGAAUCAAAUUUAAACCCCCCCAAACCCAAAAAAGUAUUAUGUUACGCCGUUCGGAUCUGCACUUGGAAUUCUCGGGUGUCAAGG	1.39
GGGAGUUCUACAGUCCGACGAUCUCCUGUGCUACACAUCGUAUGUACCGAAUCGGGAAAAAGGGGAAAAAGGGGAAAAAGGGGAAAGUAUUAUGUUACGCCGUUCGGAUCUGCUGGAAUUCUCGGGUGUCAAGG	-0.407

Sample 2 — method: protein binding microarray; molecule type: double-stranded DNA, one strand shown; matrix: in vitro; tested at: not given; reference: not given; reading: higher = stronger binding
Target: Histone acetyltransferase KAT6A, both winged helices, GST fusion (KAT6A, Homo sapiens, UniProt Q92794, residues 1-181)
Setting: 8-mer, flanks averaged, mean of 2 arrays, mostly near background
Residues (chain): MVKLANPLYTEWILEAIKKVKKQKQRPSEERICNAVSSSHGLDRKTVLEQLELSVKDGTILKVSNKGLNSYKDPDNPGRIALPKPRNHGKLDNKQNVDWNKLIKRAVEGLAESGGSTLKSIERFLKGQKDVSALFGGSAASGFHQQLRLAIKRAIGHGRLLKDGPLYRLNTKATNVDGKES
Strand	E-score
ATGCGCGA	0.306
CAAATATA	-0.153
ATAAGTAG	-0.0736
CTAGGGAG	-0.176
AATGACTA	-0.189
CTTAGCTC	-0.109
CCTTGTAG	-0.0583
CCCTACAG	-0.15
ATTTAAGG	-0.146
CAAGGGAA	-0.233

Sample 3 — method: RNA Bind-n-Seq; molecule type: RNA; matrix: in vitro; tested at: 365 nM; reference: no-protein control; reading: higher = stronger binding
Target: RNA binding protein fox-1 homolog 2, RRM domain, GST-SBP tag (RBFOX2, Homo sapiens, UniProt O43251-10, residues 100-194)
Setting: natural RNA segment, single round, ends assumed
Target sequence (chain): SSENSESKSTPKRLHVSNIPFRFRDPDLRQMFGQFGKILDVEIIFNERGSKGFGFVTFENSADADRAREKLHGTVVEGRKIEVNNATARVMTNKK
Strand	RBNS enrichment (R)
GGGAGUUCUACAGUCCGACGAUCUCAGGGUGUCAAGCUGUUUUCAUUUUUUAGGCAAAUAGAACAAAAGCCAUUUUGGUUCAUCCUGAUCACUUGAAUGAUAGACUCAAUGCCCUGUGCCUGGCAGGGAGCGCUGGAAUUCUCGGGUGCCAA	0.306
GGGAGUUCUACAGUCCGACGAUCUGGCCUUCUGACAGGUUUCUUUUUAUUAGAACCACAGUUUUGACUUUGUUUUGGUAAGCUGUCCUCCAGGAUCAGCACUGCCUGUGAAUACUUUGAACUGUCUCCUGCUUUGGAAUUCUCGGGUGCCAA	0.213
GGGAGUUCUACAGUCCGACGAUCGUCACUGGUAGGUAAGCAUGAGUUAAGGAAAGUCAAAAAUGAAAAUAUAUUUUGCUGUGUAUAAAUUGAUAUUUUGCUAUGCAACUCCUGUAAUUGAAUUUGUAUAAUGCUGGAAUUCUCGGGUGCCAA	6.5
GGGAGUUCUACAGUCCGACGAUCCAUGCAUGAGAGAGAAGUGGCUGGCCACAGCCAGAGGGAACAGUAACAGCCCAGGGGCCUUUAUUUUGGGAAAGGCUGUCCCGGGCUGUUACUGUCUCUUCUGGUUAUAAUGGAAUUCUCGGGUGCCAA	15.5
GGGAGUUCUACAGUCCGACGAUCUGGACUCAGUUUAACCUGUAUCCACUCUCCUUAGCCAAAGUGUGCGUCUGUCGAAAGCUGAAGUGCAGAGGGCAGGGAAGCAAACACACCAGAGCUCUUUCUGGUCAGAUUGGAAUUCUCGGGUGCCAA	0.35
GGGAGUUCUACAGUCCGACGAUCCCCACCUCAUUGUGUACCAUGAGGGGUCCUUGGGAAAUGUCUUACCUCUUGUGUUGAAUGGAGACCUGGGUUGAGAUGUGUCUGCUCUUGUAGGAAGAUCUUUUGUAUCAUGGAAUUCUCGGGUGCCAA	1.32
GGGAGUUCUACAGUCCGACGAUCUUGCUGUGGAGACCCCGUGGCUCUGCACUUUACCCGUGAGGGCAUUAACCUGACCCAGCAUGGAAGGAGGUGUGGGUACCUUCUCAGAAAGUCCUUAAUUUACAGUGGCCUGGAAUUCUCGGGUGCCAA	2.1
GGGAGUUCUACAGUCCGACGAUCCUCAUAUGUGGGGUGUAGUCACGUCAGUGACUUCCUGGGAAUUGCUUGUUUCAGAUCAUAUUGAUCUCUUUCCUUUUGUCUCUCACCGUAUGGUAUGACUUGAAUCAGUUUGGAAUUCUCGGGUGCCAA	1.87
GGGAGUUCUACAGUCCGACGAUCUACUGUGUGCCAGGCACUAUGAGGCACUUUUCUAUUUAUCCUCUUUUAAGAUAGGACUAAGAGUUCAUCUCCUUCUAGAAGGCCCCCAGGUUAAAUAAAAACACUUGGGGUGGAAUUCUCGGGUGCCAA	0.81

Sample 4 — method: protein-binding microarray; molecule type: double-stranded DNA, one strand shown; matrix: in vitro; tested at: 940 nM top; setting: 60-bp whole probe; together with: salmon DNA 0.4 mg/ml; reference: random background probes; reading: higher = stronger binding; constant ends, left off below: GCCTAGCAC … GTCTTGATTCGCTTGACGCTGCTG
Target: Interferon regulatory factor 5, full length, phosphomimetic (IRF5, Homo sapiens, UniProt Q13568-2, residues 1-514, S451D/S453D/S456D/S462D)
Strand	fitted relative affinity [z-score]
TGGACTGTGTGTTTGAGTCTGTGCTAG	-0.122
AACGGTATCCTTATCCTGACGTGCTAG	0.336
GACGGTATCTGTCTCGGGACGTGCTAG	2.5
TTAGATATCAGGTTCGATTAGTGCTAG	0.0718
CAAGGCAAGAAACAAACAACGTGCTAG	-0.414
TTAGGTTTCGGGTATCGGATAGTGCTA	10.8
GAGGATTTCAGTATCGAGACGTGCTAG	2.08
TTAGATACCAGTTTCGATTAGTGCTAG	7.51
TGAGGACTGGACTATCGGTTAGTGCTA	-0.218
TCAGTTCACTATTTAAGACTGTGCTAG	0.159
GGCTGTTTGGCCCTGAACCTGTGCTAG	-0.504
TTAGGACTGGGCTTCGGTTAGTGCTAG	-0.45
CTCGCTATGTTGTCCAGGCTGGTGCTA	-0.359
TCATTTTCCTTATTGCTTACTGTGCTA	1.74
TTGGAACTGAGTATCGATTAGTGCTAG	4.22
CCAGACTTGATTTTGGTCTTGTGCTAG	-0.0387
GACAAACTGGGGTATCGAGACGTGCTA	0.92
GAGGGACTGGGACTGGGGACGTGCTAG	-0.43
GGAGGCTCTTGCTACTGAAGGTGCTAG	-0.715
TTAGGTATCCTTTTCCTTTGGTGCTAG	0.296
TCACCTCTCTGTCCCCCACTGTGCTAG	1.26
GTAAACCATCCAAATGTTATGTGCTAG	0.211
TCAGTTTTAAATAGGGCACTGTGCTAG	0.0776
TTGCATCGTAAGCAAAAATGGTGCTAG	-0.345
TCAAATTTCTTTCTAATACTGTGCTAG	1.43

Excerpt of the above (sample 1):
Strand	log2 enrichment
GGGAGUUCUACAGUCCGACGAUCUGGUAGGUGGAUUUUGUUUAUUUUUUUAGCUCAUUUCCAGGGGUGGGAAUUUUUUUUUAAUAUGUGUCAUGAAUAAAGUUGUUUUUGAAAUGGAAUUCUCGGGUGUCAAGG	0.812
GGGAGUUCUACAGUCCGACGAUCAAGUCCUGUGCUACACAUCGUAUGUACCGAAUCGGAAAAGGGGAAAAGGGAAAAGGGAAAGUAUUAUGUUACGCCGUUCGGAUCUGCACUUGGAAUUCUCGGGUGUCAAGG	0.217
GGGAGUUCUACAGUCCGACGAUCGCAGGAAGUAAAAACAAAUGGAAAUGCUUCGGAUAGUGGCAGGGGUGGGGGUUGCUAAGGAAAGGGUGGGAUGGGAGUGGGUAAAGAGGUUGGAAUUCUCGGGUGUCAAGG	1.68
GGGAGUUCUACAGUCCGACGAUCGUCCUGUGCUACACAUCGUAUGUACCGAAUCGGUUUUUUUGGAAAAAGGUUUUUUUGGAAAGUAUUAUGUUACGCCGUUCGGAUCUGCACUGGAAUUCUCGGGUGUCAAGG	-3.12
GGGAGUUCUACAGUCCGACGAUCUCCUGUGCUACACAUCGUAUGUACCGAAUCGGGUUUUUGGGUUUUUGGGGUUUUUGGGGAAAGUAUUAUGUUACGCCGUUCGGAUCUGCAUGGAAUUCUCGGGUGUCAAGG	-1.02
